Measurements collected from several papers.
Lines come from different studies, so protocols differ. ± gives the spread as reported. Converted amounts (≈) assume the structure as drawn.

Cc1nn(C)c2c(C(C(=O)O)N3CC(OCCCCc4ccc5c(n4)NCCC5)C3)cccc12 (stereo not drawn)  toxicity (measured: body weight, systemic pressure, liver and kidney markers; rat, Sugen/hypoxia model; dose not given): not toxic
O=C(NO)C1CSC(c2ccc(F)c(C(F)(F)F)c2)=N1 (stereo not drawn)  solubility (aqueous buffer; pH 7.4): 42.3 mg/mL (≈ 137 mM)
Cc1cc(SCc2sc(-c3ccccc3Cl)nc2C)ccc1OCC(=O)O  CC50 (HEK293T; 18 h): > 80 µM
CCOc1ccccc1Nc1nnc(SCC(=O)Nc2cc(F)ccc2F)s1  half-life (mouse plasma): > 120 min
NC(=O)c1cn(-c2ccc(F)cc2)c2ccc(NCc3cccnc3)cc2c1=O  unbound fraction (rat, plasma): 0.137
Nc1ncc(-c2ccc3ncnc(N4CCc5cc(F)c(Cl)cc54)c3c2)cn1  AUC(0-t) (CD1 mouse, brain; intravenous, 5 mg/kg): 2900 ng·h/mL
Cc1ncc(CCc2ccc3c(c2)c(=O)c(C(N)=O)cn3-c2ccc(F)cc2)cn1  unbound fraction (rat, plasma): 0.157
CCCCNC(=O)NC1CC=C(c2cc3c(Nc4cc5ncsc5cc4F)ncnc3s2)CC1 (stereo not drawn)  intrinsic clearance (human liver microsomes; 1 µM): < 12 mL/min/g protein
Cc1n[nH]c(C)c1CCOC(=O)c1cccc2c1oc(=O)n2C  Cmax (BALB/c mouse, plasma; oral, 10 mg/kg): 2640 ng/mL
Cc1cc(NC(=O)c2cccc(NC(=O)C3=CC(C)(C)CCC3=O)c2)ccc1Nc1nccc(-c2cccnc2)n1  compound remaining (rat plasma; 1 µM, 10 min): 97.7%
CN(c1cccnc1)c1ccc2c(c1)c(=O)c(C(N)=O)cn2-c1ccc(F)cc1  unbound fraction (rat, plasma): 0.061
COC(=O)[C@@H]1C(c2nc3cc(C(F)(F)F)ccc3s2)=Cc2cc3c(cc2[C@H]1c1cc(OC)c(OC)c(OC)c1)OCO3  EC50 (Leishmania infantum; promastigote, iRFP): > 100 µM
O=C1Nc2cccc(C#CC3(O)CCNCC3)c2/C1=C/c1cc2ccccc2[nH]1  body weight (mouse, tumour model; intraperitoneal, 10 mg/kg daily): no effect
CN(C)c1ccc(C2=NC(C(=O)NO)CS2)cc1 (stereo not drawn)  logD (octanol/buffer; pH 11): -0.12
COc1ccc(CC(=O)OCc2ccc(-n3cccn3)cc2)cc1F  kinetic solubility (PBS, 1% DMSO; pH 7.4): 97.4 µM (≈ 33.2 µg/mL)
COC(=O)CC[C@H](NC(=O)c1ccc(N(C)Cc2cnc3nc(N)nc(N)c3n2)cc1)C(=O)OC  logP: 1.47
O=C(NO)[C@H]1COC(c2ccc(F)cc2)=N1  logD (octanol/buffer; pH 11): -1.11
Cc1ncc(CN(C)c2ccc3c(c2)c(=O)c(C(N)=O)cn3-c2ccc(F)cc2)cn1  unbound fraction (rat, plasma): 0.34
Cc1c(-c2ccccc2)nn2c(=O)cc(-c3cccc(-c4nnn[nH]4)c3)[nH]c12  CLint (human liver microsomes; 1 µM): 7.71 µL/min/mg
Cc1ccc(OCc2ccc3c(c2)c(=O)c(C(N)=O)cn3-c2ccc(F)cc2)cn1  unbound fraction (rat, plasma): 0.087
O=C(OC(C(F)(F)F)C(F)(F)F)N1Cc2ccc(Br)cc2C1  plasma concentration (male CD-1 mouse, plasma; oral, 8 mg/kg, 30 min, cassette dosing): 6 ± 1 ng/mL
[O-][S+](CC1CS1)c1ccc(Oc2ccccc2)cc1 (single isomer, unassigned)  chemical stability (3 d, room temperature, added: DBU): stable
COC(=O)[C@@H]1C(C=Nc2cc(C)ccc2O)=Cc2cc3c(cc2[C@H]1c1cc(OC)c(OC)c(OC)c1)OCO3  EC50 (Leishmania infantum; promastigote, iRFP): 41.1 ± 2.4 µM
CCCSc1nc(N[C@@H]2C[C@H]2c2ccc(F)c(F)c2)c2nnn([C@@H]3C[C@H](O)[C@@H](O)[C@H]3O)c2n1  AUC (rat, male, plasma; oral, 60 mg/kg/day ticagrelor, week 52): 102 µM·h
CN(C)c1ccc(C2=N[C@@H](C(=O)NO)CO2)cc1  solubility (aqueous buffer; pH 7.4): 14.1 mg/mL (≈ 56.7 mM)
Cn1cnc(S(=O)(=O)N2C[C@@H]3[C@H](C2)[C@@]3(CNC(=O)c2ccc(F)cc2F)CC2CC2)c1 (relative stereo)  brain-to-plasma ratio (Kp) (rat, brain and plasma; oral): 0.5
CC(C)n1nnc(-c2cc(O)cc(Nc3ncnn4ccc(CN5CCC(N)CC5)c34)c2)n1  brain to plasma ratio (mouse; subcutaneous, 60 mg/kg, 90 min): 0.01
Oc1ccc(-n2cc(-c3ccc4ccccc4n3)nn2)cc1  aqueous solubility (shake-flask; Britton-Robinson buffer; 48 h, pH 6.5, 30 °C): 7.6 µM (≈ 2.19 µg/mL)
O=C(O)c1cccc(-c2nc(-c3ccccc3F)c3sccn23)c1  CLint (mouse liver microsomes; 1 µM): 61.1 µL/min/mg
NC1CCN(Cc2ccn3ncnc(Nc4cccc(-c5cnco5)c4)c23)CC1  brain to plasma ratio (mouse; intraperitoneal, 30 mg/kg, 90 min): 0.22
CCN(CC)c1ccc2c(-c3ccccc3C(=O)N(C)CCCC(=O)N[C@@H](CC(C)C)C(=O)N[C@@H](CCCNC(=N)N)C(=O)N[C@@H](CCCNC(=N)N)C(=O)N[C@@H](C)C(=O)N[C@@H](CO)C(=O)N[C@@H](CC(C)C)C(=O)NCC(=O)O)c3ccc(=[N+](CC)CC)cc-3oc2c1  molar extinction coefficient (UV/Vis; phosphate buffer 25 mM; 100 µM, pH 7.4, at λmax): 39300 M⁻¹ cm⁻¹
CSc1cc(NC(=O)c2ccccn2)ccc1F  elimination rate constant (rat liver microsomes): 0.121 min⁻¹
NC(=O)c1cn(-c2ccc(F)cc2)c2ccc(Nc3cccnc3)cc2c1=O  unbound fraction (rat, plasma): 0.084
Oc1c(Cl)cccc1CNc1nc2ccccc2n1CC1CC1  half-life (mouse, liver microsomes; 1 µM, 37 °C, added: NADPH): 4.3 min
COc1ccc2c(c1)S(=O)(=O)N(CCCCCc1ccccc1)C(=O)O2  storage stability (solid, open to air): > 6 months
COc1ccc2c(c1)CN(C(=O)OC(C(F)(F)F)C(F)(F)F)C2  half-life (human liver microsomes; added: NADPH): 11 min

A few entries again:
COc1ccc2c(c1)S(=O)(=O)N(CCCCCc1ccccc1)C(=O)O2  storage stability (solid, open to air): > 6 months
O=C(OC(C(F)(F)F)C(F)(F)F)N1Cc2ccc(Br)cc2C1  plasma concentration (male CD-1 mouse, plasma; oral, 8 mg/kg, 30 min, cassette dosing): 6 ± 1 ng/mL
Oc1ccc(-n2cc(-c3ccc4ccccc4n3)nn2)cc1  aqueous solubility (shake-flask; Britton-Robinson buffer; 48 h, pH 6.5, 30 °C): 7.6 µM (≈ 2.19 µg/mL)
CCN(CC)c1ccc2c(-c3ccccc3C(=O)N(C)CCCC(=O)N[C@@H](CC(C)C)C(=O)N[C@@H](CCCNC(=N)N)C(=O)N[C@@H](CCCNC(=N)N)C(=O)N[C@@H](C)C(=O)N[C@@H](CO)C(=O)N[C@@H](CC(C)C)C(=O)NCC(=O)O)c3ccc(=[N+](CC)CC)cc-3oc2c1  molar extinction coefficient (UV/Vis; phosphate buffer 25 mM; 100 µM, pH 7.4, at λmax): 39300 M⁻¹ cm⁻¹
Cc1c(-c2ccccc2)nn2c(=O)cc(-c3cccc(-c4nnn[nH]4)c3)[nH]c12  CLint (human liver microsomes; 1 µM): 7.71 µL/min/mg
